Measurements pooled from the literature.
Compare with care: the assays were run in different laboratories. Values joined by “and” are separate records of one study, mostly repeats; a detail may differ. ± marks the error that the study gave. In brackets after ≈: the same amount, converted by molar mass.
Chain of UniProt Q5T4S7 (whole entry, looked up): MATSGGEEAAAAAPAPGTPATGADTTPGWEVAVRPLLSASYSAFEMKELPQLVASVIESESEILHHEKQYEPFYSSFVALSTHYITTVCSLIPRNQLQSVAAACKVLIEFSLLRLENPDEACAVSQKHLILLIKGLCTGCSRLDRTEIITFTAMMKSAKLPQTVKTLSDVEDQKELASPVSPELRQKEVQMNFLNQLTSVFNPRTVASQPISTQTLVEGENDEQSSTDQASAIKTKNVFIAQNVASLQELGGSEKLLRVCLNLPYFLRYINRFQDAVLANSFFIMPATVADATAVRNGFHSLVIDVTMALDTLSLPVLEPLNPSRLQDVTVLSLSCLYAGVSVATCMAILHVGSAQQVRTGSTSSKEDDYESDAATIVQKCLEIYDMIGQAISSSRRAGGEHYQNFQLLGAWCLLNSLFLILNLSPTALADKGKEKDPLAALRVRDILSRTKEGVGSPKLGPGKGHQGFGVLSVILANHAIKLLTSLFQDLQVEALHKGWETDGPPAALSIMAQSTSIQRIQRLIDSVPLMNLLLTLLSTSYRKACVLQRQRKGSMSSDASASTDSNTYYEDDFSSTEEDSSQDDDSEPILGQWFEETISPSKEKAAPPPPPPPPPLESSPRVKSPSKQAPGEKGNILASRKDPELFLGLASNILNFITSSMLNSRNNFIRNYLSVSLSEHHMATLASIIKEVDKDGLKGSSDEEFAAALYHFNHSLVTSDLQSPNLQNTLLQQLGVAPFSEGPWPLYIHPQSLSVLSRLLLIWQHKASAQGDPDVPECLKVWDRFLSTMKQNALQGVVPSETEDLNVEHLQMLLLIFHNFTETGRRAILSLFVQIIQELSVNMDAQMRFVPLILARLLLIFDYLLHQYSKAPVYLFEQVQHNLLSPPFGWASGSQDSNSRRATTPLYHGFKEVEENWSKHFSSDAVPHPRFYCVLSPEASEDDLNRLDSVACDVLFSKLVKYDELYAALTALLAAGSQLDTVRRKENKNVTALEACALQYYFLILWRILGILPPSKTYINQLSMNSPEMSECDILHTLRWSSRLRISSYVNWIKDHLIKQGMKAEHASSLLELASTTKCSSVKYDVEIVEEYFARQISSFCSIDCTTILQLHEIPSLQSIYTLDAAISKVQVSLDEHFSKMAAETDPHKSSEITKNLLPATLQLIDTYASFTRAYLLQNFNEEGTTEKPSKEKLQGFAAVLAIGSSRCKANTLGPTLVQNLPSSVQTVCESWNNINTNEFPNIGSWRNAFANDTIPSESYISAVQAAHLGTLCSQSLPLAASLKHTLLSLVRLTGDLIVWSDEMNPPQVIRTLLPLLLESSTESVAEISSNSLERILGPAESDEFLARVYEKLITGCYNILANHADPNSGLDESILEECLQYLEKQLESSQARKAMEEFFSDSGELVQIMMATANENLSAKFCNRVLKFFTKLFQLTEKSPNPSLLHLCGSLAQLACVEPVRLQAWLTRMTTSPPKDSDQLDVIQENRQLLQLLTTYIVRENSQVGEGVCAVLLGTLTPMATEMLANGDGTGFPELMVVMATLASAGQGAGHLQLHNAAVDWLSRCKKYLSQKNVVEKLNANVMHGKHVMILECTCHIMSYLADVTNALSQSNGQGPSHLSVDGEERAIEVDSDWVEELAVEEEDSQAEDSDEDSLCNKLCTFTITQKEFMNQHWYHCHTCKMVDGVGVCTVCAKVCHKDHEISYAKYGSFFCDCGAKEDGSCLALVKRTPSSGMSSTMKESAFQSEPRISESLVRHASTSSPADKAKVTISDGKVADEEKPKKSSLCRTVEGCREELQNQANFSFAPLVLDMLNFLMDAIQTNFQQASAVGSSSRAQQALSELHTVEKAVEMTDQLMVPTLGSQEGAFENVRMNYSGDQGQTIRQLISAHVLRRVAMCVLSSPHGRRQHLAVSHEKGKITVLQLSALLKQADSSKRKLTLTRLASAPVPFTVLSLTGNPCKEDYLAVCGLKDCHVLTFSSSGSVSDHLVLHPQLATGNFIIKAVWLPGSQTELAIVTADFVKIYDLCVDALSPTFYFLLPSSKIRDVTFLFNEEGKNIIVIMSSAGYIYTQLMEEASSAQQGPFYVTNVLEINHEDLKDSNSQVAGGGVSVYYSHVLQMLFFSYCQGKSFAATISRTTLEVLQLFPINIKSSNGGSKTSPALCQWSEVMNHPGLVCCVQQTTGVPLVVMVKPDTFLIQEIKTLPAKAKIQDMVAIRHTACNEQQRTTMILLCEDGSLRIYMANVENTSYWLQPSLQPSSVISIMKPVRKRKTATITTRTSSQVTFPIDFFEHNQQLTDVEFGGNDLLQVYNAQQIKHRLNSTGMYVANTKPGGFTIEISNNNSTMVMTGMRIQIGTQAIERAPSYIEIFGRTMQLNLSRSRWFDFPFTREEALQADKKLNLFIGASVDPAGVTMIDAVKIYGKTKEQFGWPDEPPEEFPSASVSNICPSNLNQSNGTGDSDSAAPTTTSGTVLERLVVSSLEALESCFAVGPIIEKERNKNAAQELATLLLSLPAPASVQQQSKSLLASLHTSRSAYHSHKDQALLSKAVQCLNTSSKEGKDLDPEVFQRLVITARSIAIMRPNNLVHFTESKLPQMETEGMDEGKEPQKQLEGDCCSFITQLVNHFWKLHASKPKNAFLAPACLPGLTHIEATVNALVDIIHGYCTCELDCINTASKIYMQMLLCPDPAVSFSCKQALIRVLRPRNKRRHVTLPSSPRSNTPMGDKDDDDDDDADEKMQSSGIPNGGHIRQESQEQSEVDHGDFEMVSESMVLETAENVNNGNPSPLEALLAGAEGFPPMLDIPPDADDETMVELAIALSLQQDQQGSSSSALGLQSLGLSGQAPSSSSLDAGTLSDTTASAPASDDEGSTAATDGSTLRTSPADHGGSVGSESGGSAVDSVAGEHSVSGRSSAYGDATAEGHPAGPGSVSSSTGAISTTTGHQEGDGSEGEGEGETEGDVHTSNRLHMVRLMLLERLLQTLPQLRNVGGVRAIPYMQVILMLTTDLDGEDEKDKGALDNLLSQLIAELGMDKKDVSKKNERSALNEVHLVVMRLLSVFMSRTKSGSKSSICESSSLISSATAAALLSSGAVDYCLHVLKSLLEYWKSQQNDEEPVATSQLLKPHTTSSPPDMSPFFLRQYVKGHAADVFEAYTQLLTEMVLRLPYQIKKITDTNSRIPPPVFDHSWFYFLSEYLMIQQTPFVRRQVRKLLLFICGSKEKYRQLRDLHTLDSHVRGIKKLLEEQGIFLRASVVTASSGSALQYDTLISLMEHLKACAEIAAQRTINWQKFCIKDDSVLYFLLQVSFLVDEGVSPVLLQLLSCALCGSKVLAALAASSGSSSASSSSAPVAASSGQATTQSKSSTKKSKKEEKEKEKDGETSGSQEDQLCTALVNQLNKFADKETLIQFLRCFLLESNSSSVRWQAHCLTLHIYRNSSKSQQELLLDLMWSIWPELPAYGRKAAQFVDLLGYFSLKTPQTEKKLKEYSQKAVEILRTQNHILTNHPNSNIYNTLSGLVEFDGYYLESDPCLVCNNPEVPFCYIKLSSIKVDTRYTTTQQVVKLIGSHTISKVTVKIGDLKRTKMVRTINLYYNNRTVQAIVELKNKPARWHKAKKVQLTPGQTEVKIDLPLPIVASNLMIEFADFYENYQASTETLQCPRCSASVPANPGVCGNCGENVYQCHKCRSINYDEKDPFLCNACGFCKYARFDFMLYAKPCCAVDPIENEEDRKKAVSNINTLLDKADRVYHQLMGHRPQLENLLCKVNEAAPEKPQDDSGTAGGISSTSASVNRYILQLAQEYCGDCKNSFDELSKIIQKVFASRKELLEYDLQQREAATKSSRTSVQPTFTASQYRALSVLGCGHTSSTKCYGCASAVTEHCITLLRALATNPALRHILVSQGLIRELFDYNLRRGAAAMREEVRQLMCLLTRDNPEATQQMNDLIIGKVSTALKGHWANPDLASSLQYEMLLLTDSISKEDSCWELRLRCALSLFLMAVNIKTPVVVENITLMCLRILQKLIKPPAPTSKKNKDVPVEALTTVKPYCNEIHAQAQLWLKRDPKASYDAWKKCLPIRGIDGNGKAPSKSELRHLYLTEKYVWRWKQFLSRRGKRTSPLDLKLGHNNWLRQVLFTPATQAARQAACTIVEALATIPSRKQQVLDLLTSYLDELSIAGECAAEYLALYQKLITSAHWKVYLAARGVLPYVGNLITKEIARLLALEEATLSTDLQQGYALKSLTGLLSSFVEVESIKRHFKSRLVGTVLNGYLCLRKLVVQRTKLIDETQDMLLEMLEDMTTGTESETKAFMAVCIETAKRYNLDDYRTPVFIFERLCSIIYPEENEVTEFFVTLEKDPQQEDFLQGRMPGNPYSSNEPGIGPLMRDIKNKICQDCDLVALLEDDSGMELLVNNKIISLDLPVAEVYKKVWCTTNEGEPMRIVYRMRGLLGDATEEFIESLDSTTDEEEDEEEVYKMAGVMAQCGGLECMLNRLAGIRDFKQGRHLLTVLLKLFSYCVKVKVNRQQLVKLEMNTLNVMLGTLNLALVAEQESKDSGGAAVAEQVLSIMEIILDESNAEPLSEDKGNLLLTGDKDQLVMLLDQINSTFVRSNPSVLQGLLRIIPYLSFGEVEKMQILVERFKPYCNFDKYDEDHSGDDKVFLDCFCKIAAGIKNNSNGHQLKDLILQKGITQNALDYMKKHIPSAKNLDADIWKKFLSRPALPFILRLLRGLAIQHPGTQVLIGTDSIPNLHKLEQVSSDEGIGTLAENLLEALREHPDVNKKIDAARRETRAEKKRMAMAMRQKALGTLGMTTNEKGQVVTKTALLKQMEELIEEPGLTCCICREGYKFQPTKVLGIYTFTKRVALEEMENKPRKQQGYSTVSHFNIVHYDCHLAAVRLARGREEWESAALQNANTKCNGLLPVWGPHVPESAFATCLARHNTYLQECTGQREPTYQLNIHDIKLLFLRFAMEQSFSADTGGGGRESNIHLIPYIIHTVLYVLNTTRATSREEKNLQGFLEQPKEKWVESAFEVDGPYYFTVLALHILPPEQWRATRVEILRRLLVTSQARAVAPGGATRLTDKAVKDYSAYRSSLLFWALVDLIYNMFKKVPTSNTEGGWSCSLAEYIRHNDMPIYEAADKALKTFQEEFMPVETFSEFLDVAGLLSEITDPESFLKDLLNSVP

SMILES | tested on | assay | system | setting | how to read | quantity | result
C/C=C(/C)C(=O)O[C@H]1C(C)=C2[C@H]([C@@H]1OC(=O)CCCCCCC)[C@@](C)(OC(C)=O)C[C@H](OC(=O)CCC)[C@@]1(O)[C@H]2OC(=O)[C@@]1(C)O | HEK-293T | RNA-seq GSEA, item: Hallmark heme metabolism |  | 500 nM, 6 h | direction not given | normalized enrichment score | 1.61
CN1CCc2[nH]c(-c3ccnc(NC(=O)[C@@H](CC(F)F)c4ccc(F)cc4)c3)c(Nc3ccccc3)c2C1=O | MOLM-13 | mRNA level, RNA-seq, item: PHGDH |  | 200 nM, 24 h | baseline: DMSO | log2 fold change | -4.53
C[C@H]1CN(c2n[nH]c3nc(N[C@H]4CC[C@H](NS(=O)(=O)CCC(F)(F)F)CC4)ncc23)CCO1 | UBR4 (Homo sapiens, UniProt Q5T4S7) | inhibitor, Kinobeads competition profiling |  | 0.16 µM | baseline: vehicle | relative abundance | 1.13
Oc1ccc(C2(c3ccc(O)cc3)c3ccccc3-c3ccccc32)cc1 | HepG2 spheroids | Hoechst flow cytometry |  | 0.01 µM, 96 h |  | G2 phase cells | 12.6 ± 4.07%
CC(=O)O[C@H]1C[C@H](O[C@H]2[C@@H](O)C[C@H](O[C@H]3[C@@H](O)C[C@H](O[C@H]4CC[C@@]5(C)[C@H](CC[C@@H]6[C@@H]5C[C@@H](O)[C@]5(C)[C@@H](C7=CC(=O)OC7)CC[C@]65O)C4)O[C@@H]3C)O[C@@H]2C)O[C@H](C)[C@H]1O[C@@H]1O[C@H](CO)[C@@H](O)[C@H](O)[C@H]1O | human iPSC cardiomyocytes | plate-normalised |  | concentration not given, hit retest | baseline: vehicle controls, SDs below control | MyBP-C level change | 12.9 SD
CC[C@H](C)[C@H](NC(=O)[C@H](C)NC(=O)CNC(=O)[C@H](Cc1ccccc1)NC(=O)[C@H](CC(N)=O)NC(=O)[C@H](CC(N)=O)NC(=O)[C@H](CO)NC(=O)[C@H](CO)NC(=O)[C@H](Cc1c[nH]cn1)NC(=O)[C@@H](NC(=O)[C@H](CC(C)C)NC(=O)[C@H](Cc1ccccc1)NC(=O)[C@H](CC(N)=O)NC(=O)[C@H](C)NC(=O)[C@H](CC(C)C)NC(=O)[C@H](CCCNC(=N)N)NC(=O)[C@H](CCC(N)=O)NC(=O)[C@@H](NC(=O)[C@H](C)NC(=O)[C@@H]1CSSC[C@H](NC(=O)[C@@H](N)CCCCN)C(=O)N[C@@H](CC(N)=O)C(=O)N[C@@H]([C@@H](C)O)C(=O)N[C@@H](C)C(=O)N[C@@H]([C@@H](C)O)C(=O)N1)[C@@H](C)O)C(C)C)C(=O)N[C@@H](CC(C)C)C(=O)N[C@@H](CO)C(=O)N[C@@H](CO)C(=O)N[C@H](C(=O)N[C@@H](CC(N)=O)C(=O)N[C@H](C(=O)NCC(=O)N[C@@H](CO)C(=O)N[C@@H](CC(N)=O)C(=O)N[C@H](C(=O)N[C@@H](Cc1ccc(O)cc1)C(N)=O)[C@@H](C)O)C(C)C)[C@@H](C)O | INS-1 | MTT |  | 1 µM, 24 h |  | viability | 54.6% and 54.1%
CN1CCN(C2(CNC3CCN(c4cccc(-c5cc6cc(F)ccc6[nH]5)c4)CC3)CCC2)CC1 | ACHN |  |  |  |  | CC50 | 5.93 µM
Cn1cc2cc(C(F)(F)c3nnc4ccc(-c5cnn(C6CC6)c5)nn34)c(F)cc2n1 | MKN-45 | western blot, item: CDK2, CDK4, CDK6, cyclin E1 |  | concentration not given, 24 h |  | protein level | decreased
O=C1N(Cc2ccccc2Cl)c2ccccc2C12NN=C(c1ccccc1)S2 (stereo not drawn) | MDA-MB-468 | gene expression array, item: CCDC167 mRNA |  | 10 µM, 12 h | baseline: untreated, up | fold change | 1.52
COc1ccc2c(c1OC)CN1CCc3cc4c(cc3[C@@H]1C2)OCO4 | HepaRG | ROS-Glo |  |  |  | maximal ROS response | -73.8 ± 51.4%
CC[C@H](C)[C@@H]1NC(=O)[C@@H]2CCCN2C(=O)[C@H](CC(C)C)NC(=O)[C@H](CC(C)C)NC(=O)CNC(=O)[C@@H](NC(=O)[C@@H](NC(=O)[C@H](CC(=O)O)NC(=O)CNC(=O)[C@@H](NC(=O)[C@H](C)NC(=O)CNC(=O)[C@H](CCCCN)NC(=O)[C@H](CC(C)C)NC(=O)[C@H](CC(C)C)NC(=O)[C@H](CCCCN)NC(=O)CNC(=O)[C@@H](NC(=O)[C@@H](N)CC(C)C)C(C)C)C(C)C)C(C)C)CSSC[C@@H](C(=O)O)NC1=O |  | RNA-seq, item: Pla1a | mouse, traumatic brain injury model, frontal cortex and hippocampus | dose not given | baseline: TBI alone | log2 fold change | -1.37
CCCCCCCCCCCCCC1OC(=O)/C1=C\CCCCC(N)=O (stereo not drawn) | mouse peritoneal macrophages ABHD16A knock-out | cellular and secreted lipids |  | 1 µM, 4 h, basal and LPS-stimulated |  | lyso-PS level | no effect
O=C(Nc1ccc2[nH]nc(-c3ccncc3)c2c1)[C@@H]1CCN(CC(=O)N2CCN(c3ccc(-c4ncccn4)cc3)CC2)C1 | HCT116 | IncuCyte |  | concentration not given, 32 (unit not given) |  | PI-positive cells | 9.92 count and 10.1 count
O=c1c(O)c(-c2ccc(O)c(O)c2)oc2cc(O)cc(O)c12 | SH-SY5Y Aβ-GFP cells | Aβ folding |  | 1 to 5 µM | baseline: untreated induced cells | GFP fluorescence | 116 to 124%
CC(C)(C)c1cc(C=C(C#N)C#N)cc(Br)c1O | hCMEC/D3 | outcome: decreased, Western blot, item: LRP-1 |  | 100 µM, with or without insulin |  | membrane expression | decreased
Oc1ccc(C(c2ccc(O)cc2)(C(F)(F)F)C(F)(F)F)cc1 | HepG2 spheroids | Hoechst flow cytometry |  | 10 µM, 96 h |  | G1 phase cells | 69.4 ± 8.51%
COP(=O)(OC)OC=C(Cl)Cl | MDA-MB-231 BAX/BAK siRNA knockdown | CellTiter-Glo |  | concentration not given | baseline: normalised luminescence | viability | 37.8% and 68.6%
CCN(CC)c1ccc(C=NNC(=O)CSc2nc3ccccc3c(=O)n2Cc2ccc(S(N)(=O)=O)cc2)c(O)c1 | OVCAR-4 | NCI five-dose screen |  |  |  | CC50 | > 100 µM

SMILES | tested on | assay | system | setting | how to read | quantity | result
C[C@]12Cc3cnn(-c4ccc(F)cc4)c3C=C1CC[C@@H]1[C@@H]2CC[C@@]2(C)[C@H]1CC[C@@]2(O)C#N | HEK293T ATF4-FLuc reporter | ATF4 reporter gene, activator, luciferase reporter |  |  |  | EC50 | > 9.96 µM
CN(C)c1cc(NC(=O)CNC(C)(C)C)c(O)c2c1C[C@H]1C[C@H]3[C@H](N(C)C)C(O)=C(C(N)=O)C(=O)[C@@]3(O)C(O)=C1C2=O | Escherichia coli DH5α expressing KPC-180 | bacterial growth |  |  |  | MIC | 0.125 µg/mL (≈ 0.213 µM)
COc1cc(CCC[P+](c2ccccc2)(c2ccccc2)c2ccccc2)c(OC)c2c1OCO2.[I-] | Malme-3M | SRB |  |  |  | LC50 | -4.46 log M
Cc1cc(C(C)(C)c2ccc(O)c(C)c2)ccc1O | HepG2 spheroids | Hoechst flow cytometry |  | 10 µM, 96 h |  | G1 phase cells | 68 ± 11.6%
CCCCCCCCC[C@@H]1CC(=O)NCC(=O)N[C@H](Cc2ccc(O)cc2)C(=O)NCC(=O)N[C@@H](Cc2ccccc2)C(=O)O1 | BV-2 mouse microglia | ELISA | culture supernatant | 5 µM, together with: LPS |  | TNF-alpha level | decreased
CCc1c2c(nc3ccc(OC(=O)N4CCC(N5CCCCC5)CC4)cc13)-c1cc3c(c(=O)n1C2)COC(=O)[C@]3(O)CC.Cl.O.O.O | human coronavirus OC43 | virus-induced cell killing | MRC-5 | maximum over 10 doses |  | maximum inhibition | 0%
COc1ccc2c(c1)[nH]c1c(C)nccc12 | DU-145 | bisulfite pyrosequencing, item: RASSF1A promoter CpG site 8 |  | 10 µM, 16 h |  | DNA methylation | 89.3%
COc1cc2c(Oc3ccc4[nH]c(C)cc4c3F)ccnc2cc1OCC1(N)CC1 |  |  | paediatric recurrent refractory sarcoma | 10 mg |  | grade 1 or 2 Myalgia | 25%
COc1c(C)c2c(c(O)c1C/C=C(\C)CCC(=O)O)C(=O)OC2 | JAR | cell proliferation |  |  |  | IC50 | 0.355 µM
CCCC[N+]1(C)[C@@H]2C[C@@H](OC(=O)[C@H](CO)c3ccccc3)C[C@H]1[C@@H]1O[C@@H]12 (stereo partly drawn) | THP-1 | pyroptotic LDH release |  | 2 µM, 40 min, together with: LPS then nigericin |  | inhibition | -27%
Cc1nn(-c2nc3c(F)cc(F)cc3s2)c(O)c1C(c1ccc(C(F)(F)F)cc1)c1c(C)nn(-c2nc3c(F)cc(F)cc3s2)c1O | RAW-ISG | CCK-8 |  | 3.125 µM |  | viability | 102% and 108% and 98.5% and 105%
O=C(O)c1cc(-c2ccc(Br)cc2)nc2ccc(Cl)cc12 | Huh-7 | MTT |  |  | baseline: CC50 over IC50 | selectivity index | 1.49
COc1c(CCC[P+](c2ccccc2)(c2ccccc2)c2ccccc2)cc2c(c1OC)OCO2.[I-] | OVCAR-5 | SRB |  |  |  | GI50 | -5.56 log M
Nc1ncnc2c1ncn2[C@@H]1O[C@@H]2COP(=O)(O)O[C@H]3[C@@H](O)[C@H](n4cnc5c(=O)[nH]cnc54)O[C@@H]3COP(=O)(O)O[C@H]2[C@H]1O | HFF-1 | RNA sequencing, item: Reactome FOXO-mediated transcription |  | upregulated pathways | baseline: mock | fold enrichment | 6.13
Cc1nc2ccc(CN(C)c3ccc(C(=O)N[C@@H](CCC(=O)O)C(=O)O)s3)cc2c(=O)[nH]1 | human coronavirus OC43 | virus-induced cell killing | MRC-5 | maximum over 10 doses |  | maximum inhibition | 0%
O=Nc1ccccc1 | THP-1 | pyroptotic LDH release |  | 2 µM, 40 min, together with: LPS then nigericin |  | inhibition | 4.93%
Cn1cncc1C1=CN(c2ncnc3[nH]cnc23)CCS1 | KM12 |  |  | colon cancer |  | CC50 | > 200 µM
CC(C)N1CCC(NC2CCN(c3cccc(-c4cc5cc(F)ccc5[nH]4)c3)CC2)CC1 | CAKI-1 |  |  |  |  | GI50 | 1.54 µM
